Measurements gathered from unrelated publications.
Compare with care: the assays were run in different laboratories. ± gives the spread as reported.
GPBAR1: G-protein coupled bile acid receptor 1 (GPBAR1, Homo sapiens, UniProt Q8TDU6)
Sequence of UniProt Q8TDU6 (whole entry, looked up): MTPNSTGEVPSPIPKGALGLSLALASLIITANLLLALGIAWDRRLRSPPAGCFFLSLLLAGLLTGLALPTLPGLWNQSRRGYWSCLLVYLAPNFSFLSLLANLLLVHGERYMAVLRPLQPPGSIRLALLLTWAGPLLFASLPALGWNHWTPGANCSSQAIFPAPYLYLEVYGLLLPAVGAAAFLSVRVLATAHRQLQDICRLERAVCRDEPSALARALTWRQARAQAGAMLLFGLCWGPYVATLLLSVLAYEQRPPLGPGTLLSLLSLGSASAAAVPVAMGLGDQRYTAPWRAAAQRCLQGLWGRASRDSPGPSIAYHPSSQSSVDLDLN
Melanocortin receptor 4: Melanocortin receptor 4 (Mus musculus, UniProt P56450)
Sequence of UniProt P56450 (whole entry, looked up): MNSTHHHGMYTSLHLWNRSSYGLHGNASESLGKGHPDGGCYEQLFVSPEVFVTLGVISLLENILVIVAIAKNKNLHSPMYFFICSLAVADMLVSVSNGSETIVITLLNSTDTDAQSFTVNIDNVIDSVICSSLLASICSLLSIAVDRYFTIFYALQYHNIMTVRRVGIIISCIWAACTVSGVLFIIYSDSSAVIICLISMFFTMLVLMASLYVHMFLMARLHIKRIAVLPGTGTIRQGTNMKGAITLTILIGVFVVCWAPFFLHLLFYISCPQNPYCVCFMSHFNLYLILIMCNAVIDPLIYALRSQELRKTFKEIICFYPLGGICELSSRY
P2RY2: P2Y purinoceptor 2 (P2RY2, Homo sapiens, UniProt P41231)
Sequence of UniProt P41231 (whole entry, looked up): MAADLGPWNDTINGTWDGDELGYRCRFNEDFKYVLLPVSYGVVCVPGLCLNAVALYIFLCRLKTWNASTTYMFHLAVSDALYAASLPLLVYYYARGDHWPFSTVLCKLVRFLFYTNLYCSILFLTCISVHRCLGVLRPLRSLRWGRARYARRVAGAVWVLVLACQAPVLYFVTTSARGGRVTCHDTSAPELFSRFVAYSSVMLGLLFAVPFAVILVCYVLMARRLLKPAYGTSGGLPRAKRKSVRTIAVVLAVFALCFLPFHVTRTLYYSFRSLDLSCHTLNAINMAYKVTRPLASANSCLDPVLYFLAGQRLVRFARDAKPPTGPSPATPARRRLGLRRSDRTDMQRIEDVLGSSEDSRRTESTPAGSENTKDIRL
ATP2A2: ATP2A2 (Sus scrofa, UniProt P11607)
Sequence of UniProt P11607 (whole entry, looked up): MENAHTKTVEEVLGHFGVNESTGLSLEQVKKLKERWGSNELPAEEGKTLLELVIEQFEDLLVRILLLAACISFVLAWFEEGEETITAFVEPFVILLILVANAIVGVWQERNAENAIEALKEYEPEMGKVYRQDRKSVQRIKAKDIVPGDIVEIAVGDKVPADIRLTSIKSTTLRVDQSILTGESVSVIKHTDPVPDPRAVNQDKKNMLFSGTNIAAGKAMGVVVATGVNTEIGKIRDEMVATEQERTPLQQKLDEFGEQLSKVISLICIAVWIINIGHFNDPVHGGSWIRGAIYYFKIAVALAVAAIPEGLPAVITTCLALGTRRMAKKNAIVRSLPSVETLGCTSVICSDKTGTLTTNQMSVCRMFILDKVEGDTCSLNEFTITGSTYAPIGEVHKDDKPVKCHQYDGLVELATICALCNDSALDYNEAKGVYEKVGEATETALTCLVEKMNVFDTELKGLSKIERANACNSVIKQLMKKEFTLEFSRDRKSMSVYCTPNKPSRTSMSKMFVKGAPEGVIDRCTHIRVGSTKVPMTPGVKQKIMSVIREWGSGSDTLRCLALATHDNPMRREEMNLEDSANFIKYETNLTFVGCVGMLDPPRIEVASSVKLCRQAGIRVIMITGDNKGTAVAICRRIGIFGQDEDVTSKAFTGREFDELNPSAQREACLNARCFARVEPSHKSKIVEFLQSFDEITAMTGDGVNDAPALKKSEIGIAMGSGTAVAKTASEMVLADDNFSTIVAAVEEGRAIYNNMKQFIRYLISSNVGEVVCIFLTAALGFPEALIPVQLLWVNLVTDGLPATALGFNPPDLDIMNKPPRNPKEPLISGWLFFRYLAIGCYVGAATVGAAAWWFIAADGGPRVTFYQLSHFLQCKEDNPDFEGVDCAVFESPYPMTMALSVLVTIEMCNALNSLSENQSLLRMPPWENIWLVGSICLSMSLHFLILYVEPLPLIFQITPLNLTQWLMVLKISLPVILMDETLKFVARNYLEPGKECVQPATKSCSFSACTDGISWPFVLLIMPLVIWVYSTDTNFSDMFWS
CHRM1: Muscarinic acetylcholine receptor M1 (CHRM1, Homo sapiens, UniProt P11229)
Sequence of UniProt P11229 (whole entry, looked up): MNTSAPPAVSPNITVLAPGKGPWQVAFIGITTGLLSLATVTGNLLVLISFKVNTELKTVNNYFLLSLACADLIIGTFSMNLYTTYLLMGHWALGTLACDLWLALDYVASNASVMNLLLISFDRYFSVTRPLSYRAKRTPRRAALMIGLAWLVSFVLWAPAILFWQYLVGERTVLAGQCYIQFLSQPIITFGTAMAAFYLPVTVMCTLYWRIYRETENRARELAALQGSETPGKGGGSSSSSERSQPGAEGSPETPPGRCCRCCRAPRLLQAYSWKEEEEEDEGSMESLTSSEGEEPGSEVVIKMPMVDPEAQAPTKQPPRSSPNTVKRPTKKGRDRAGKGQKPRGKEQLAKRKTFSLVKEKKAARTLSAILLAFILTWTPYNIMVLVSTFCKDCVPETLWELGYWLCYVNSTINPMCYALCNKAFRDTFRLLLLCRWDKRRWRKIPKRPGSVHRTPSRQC
DNA topoisomerase IB: DNA topoisomerase IB (Leishmania donovani, UniProt A0A3Q8IHS4+Q8WQM6)
Sequence of UniProt Q13485 (whole entry, unmodified, looked up): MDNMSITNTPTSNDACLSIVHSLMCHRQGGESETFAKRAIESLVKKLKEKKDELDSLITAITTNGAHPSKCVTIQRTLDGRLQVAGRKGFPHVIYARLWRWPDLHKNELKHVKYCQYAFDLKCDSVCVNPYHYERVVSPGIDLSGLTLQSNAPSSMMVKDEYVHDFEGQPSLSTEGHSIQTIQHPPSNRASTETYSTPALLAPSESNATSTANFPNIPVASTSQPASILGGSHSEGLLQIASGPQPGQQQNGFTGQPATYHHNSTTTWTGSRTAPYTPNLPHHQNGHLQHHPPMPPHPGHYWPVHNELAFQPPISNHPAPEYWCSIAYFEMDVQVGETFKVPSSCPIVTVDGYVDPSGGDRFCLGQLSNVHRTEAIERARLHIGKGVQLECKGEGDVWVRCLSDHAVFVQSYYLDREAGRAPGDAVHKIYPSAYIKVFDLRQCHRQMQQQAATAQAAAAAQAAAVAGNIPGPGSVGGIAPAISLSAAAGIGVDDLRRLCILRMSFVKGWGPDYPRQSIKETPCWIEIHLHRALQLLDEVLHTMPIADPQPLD
Sequence of UniProt O15297 (whole entry, looked up): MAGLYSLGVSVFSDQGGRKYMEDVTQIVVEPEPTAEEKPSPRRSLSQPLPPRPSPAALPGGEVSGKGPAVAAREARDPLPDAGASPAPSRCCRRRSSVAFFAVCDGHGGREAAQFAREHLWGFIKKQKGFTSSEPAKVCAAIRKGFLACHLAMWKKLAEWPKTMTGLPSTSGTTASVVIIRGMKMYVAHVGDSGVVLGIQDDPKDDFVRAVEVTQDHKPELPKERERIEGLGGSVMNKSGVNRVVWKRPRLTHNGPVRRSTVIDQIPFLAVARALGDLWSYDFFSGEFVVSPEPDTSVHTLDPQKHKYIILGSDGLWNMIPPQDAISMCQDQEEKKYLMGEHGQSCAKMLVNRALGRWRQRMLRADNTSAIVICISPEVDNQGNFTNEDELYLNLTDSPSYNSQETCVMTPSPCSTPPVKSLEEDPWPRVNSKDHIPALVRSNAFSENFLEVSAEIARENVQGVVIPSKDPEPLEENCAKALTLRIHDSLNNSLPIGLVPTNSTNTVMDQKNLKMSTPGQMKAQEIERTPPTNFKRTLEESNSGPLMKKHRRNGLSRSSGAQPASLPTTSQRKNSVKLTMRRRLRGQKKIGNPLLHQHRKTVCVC
Sequence of UniProt Q62007 (whole entry, looked up): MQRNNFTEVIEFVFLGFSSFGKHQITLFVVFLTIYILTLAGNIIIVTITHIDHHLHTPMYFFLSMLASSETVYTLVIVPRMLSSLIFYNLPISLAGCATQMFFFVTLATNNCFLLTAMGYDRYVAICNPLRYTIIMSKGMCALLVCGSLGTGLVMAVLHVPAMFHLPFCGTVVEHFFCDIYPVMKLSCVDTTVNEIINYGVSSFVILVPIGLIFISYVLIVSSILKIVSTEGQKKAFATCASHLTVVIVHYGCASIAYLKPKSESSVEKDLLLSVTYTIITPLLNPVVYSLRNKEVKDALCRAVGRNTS
Sequence of UniProt P51582 (whole entry, looked up): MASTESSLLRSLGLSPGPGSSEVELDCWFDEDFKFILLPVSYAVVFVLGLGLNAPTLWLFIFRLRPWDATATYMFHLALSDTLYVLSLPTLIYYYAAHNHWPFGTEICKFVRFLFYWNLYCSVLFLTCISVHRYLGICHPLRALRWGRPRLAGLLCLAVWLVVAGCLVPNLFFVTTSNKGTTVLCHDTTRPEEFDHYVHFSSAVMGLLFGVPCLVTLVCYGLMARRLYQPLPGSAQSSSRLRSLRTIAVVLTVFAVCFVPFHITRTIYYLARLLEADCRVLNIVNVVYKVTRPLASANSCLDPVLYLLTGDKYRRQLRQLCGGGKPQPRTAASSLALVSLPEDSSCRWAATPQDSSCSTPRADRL
Sequence of UniProt P11474 (whole entry, looked up): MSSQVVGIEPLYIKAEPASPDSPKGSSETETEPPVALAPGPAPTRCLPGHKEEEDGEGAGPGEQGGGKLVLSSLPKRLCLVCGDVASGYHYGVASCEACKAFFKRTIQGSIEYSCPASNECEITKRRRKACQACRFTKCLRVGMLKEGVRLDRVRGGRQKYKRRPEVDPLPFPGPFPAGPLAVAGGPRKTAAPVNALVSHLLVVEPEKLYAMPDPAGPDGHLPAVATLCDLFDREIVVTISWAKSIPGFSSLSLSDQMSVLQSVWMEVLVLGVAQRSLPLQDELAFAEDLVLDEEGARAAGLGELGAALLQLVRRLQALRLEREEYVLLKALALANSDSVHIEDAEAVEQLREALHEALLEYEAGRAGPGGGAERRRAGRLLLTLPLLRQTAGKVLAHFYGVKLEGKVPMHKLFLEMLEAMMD

| SMILES | target | test | system | conditions | EC50 [µM] |
| --- | --- | --- | --- | --- | --- |
| C[C@H](CCC(=O)N[C@H](Cc1ccc(O)cc1)C(=O)O)[C@H]1CC[C@H]2[C@@H]3[C@H](O)C[C@@H]4C[C@H](O)CC[C@]4(C)[C@H]3C[C@H](O)[C@]12C | GPBAR1 | G protein activation, agonist, BRET | – | – | 528 |
| CCCC[C@H](NC(=O)[C@H](CO)NC(=O)[C@H](Cc1ccc(O)cc1)NC(=O)[C@H](CO)NC(C)=O)C(=O)N[C@@H](CCC(=O)O)C(=O)N[C@@H](Cc1c[nH]cn1)C(=O)N[C@H](Cc1ccccc1)C(=O)N[C@@H](C)C(=O)N[C@@H](Cc1c[nH]c2ccccc12)C(=O)NCC(=O)N[C@@H](CCCCN)C(=O)N1CCC[C@H]1C(=O)N[C@H](C(N)=O)C(C)C | Melanocortin receptor 4 | – | – | – | 0.00456 ± 0.00057 |
| O=c1[nH]c(=O)n([C@@H]2O[C@H](COP(=O)(O)OP(=O)(O)OP(=O)(O)O[C@H]3O[C@H](CO)[C@@H](O)[C@H](O)[C@H]3O)[C@@H](O)[C@H]2O)cc1I | P2RY2 | PLC activation, agonist | 1321N1, transfected | – | > 10 |
| CSCC[C@H](NC(=O)[C@H](C)NC(=O)[C@H](Cc1ccc(O)cc1)NC(=O)[C@H](CO)NC(C)=O)C(=O)N[C@@H](CCC(=O)O)C(=O)N[C@@H](Cc1c[nH]cn1)C(=O)N[C@@H](Cc1ccccc1)C(=O)N[C@@H](CCCNC(=N)N)C(=O)N[C@@H](Cc1c[nH]c2ccccc12)C(=O)NCC(=O)N[C@@H](CCCCN)C(=O)N1CCC[C@H]1C(=O)N[C@H](C(N)=O)C(C)C | Melanocortin receptor 4 | – | – | – | 0.054 ± 0.04 |
| CCN(Cc1ccccc1OC)C(=O)c1cccc(Br)c1F | ATP2A2 | Ca2+-ATPase activity, activator | porcine cardiac SR vesicles | maximal Ca2+ activity | 5.9 ± 1.3 |
| Cc1nn(C)c(C)c1-c1ccc(CN2C(=O)C3(CCN(C4CCCC4)C3)c3ccccc32)c(F)c1 (stereo not drawn) | CHRM1 | acetylcholine response, positive allosteric modulator | cell-based | inactive up to 30 µM | > 30 |
| CCCCCCCCCC/C=C\CCCCC(=O)O | DNA topoisomerase IB | DNA relaxation, inhibitor | – | 30 min, 37 °C, with: supercoiled pHOT plasmid | 80.4 ± 9.29 |
| CCN(Cc1ccccc1OC)C(=O)c1cccc(Br)c1 | ATP2A2 | Ca2+-ATPase activity, activator | porcine cardiac SR vesicles | maximal Ca2+ activity | 4.8 ± 1.8 |
| O=c1ccn([C@@H]2O[C@H](COP(=O)(O)OP(=O)(O)OP(=O)(O)O[C@H]3O[C@H](CO)[C@@H](O)[C@H](O)[C@H]3O)[C@@H](O)[C@H]2O)c(=O)[nH]1 | P2Y purinoceptor 4 (P2RY4, Homo sapiens, UniProt P51582) | PLC activation, agonist | 1321N1, transfected | – | > 10 |
| BP(=O)(OC[C@H]1O[C@@H](n2ccc(=O)[nH]c2=O)[C@H](O)[C@@H]1O)OP(=O)(O)OP(=O)(O)OC[C@H]1O[C@@H](n2ccc(=O)[nH]c2=O)[C@H](O)[C@@H]1O (stereo partly drawn) | P2RY2 | intracellular calcium rise, agonist | 1321N1 expressing human P2Y2 | 37 °C | > 100 |
| CC(C)C[C@H](NC(=O)CC[C@@H](C)[C@H]1CC[C@H]2[C@@H]3[C@H](O)C[C@@H]4C[C@H](O)CC[C@]4(C)[C@H]3CC[C@]12C)C(=O)O | GPBAR1 | G protein activation, agonist, BRET | – | – | 50.1 |
| CSCC[C@H](NC(=O)[C@H](CO)NC(=O)[C@H](Cc1ccc(O)cc1)NC(=O)[C@H](C)NC(C)=O)C(=O)N[C@@H](CCC(=O)O)C(=O)N[C@@H](Cc1c[nH]cn1)C(=O)N[C@@H](Cc1ccccc1)C(=O)N[C@@H](CCCNC(=N)N)C(=O)N[C@@H](Cc1c[nH]c2ccccc12)C(=O)NCC(=O)N[C@@H](CCCCN)C(=O)N1CCC[C@H]1C(=O)N[C@H](C(N)=O)C(C)C | Melanocortin receptor 4 | – | – | – | 0.014 ± 0.0056 |
| C[C@H](CCC(=O)N[C@H](Cc1ccc(O)cc1)C(=O)O)[C@H]1CC[C@H]2[C@@H]3[C@H](O)C[C@@H]4C[C@H](O)CC[C@]4(C)[C@H]3CC[C@]12C | GPBAR1 | G protein activation, agonist, BRET | – | – | 93.7 |
| COC(=O)[C@H](CCCCNC(=O)[C@H](CC1CCCCC1)NC(=O)c1cccs1)NC(=O)c1cccc(O)c1 | Protein phosphatase 1D (PPM1D, Homo sapiens, UniProt O15297) | γH2AX level increase, inhibitor, ELISA | MCF7 | 75 min after irradiation, pretreated 1 h, with: 10 Gy ionizing radiation | 56 ± 5 |
| CCCC[C@H](NC(=O)[C@H](CO)NC(=O)[C@H](C)NC(=O)[C@H](CO)NC(C)=O)C(=O)N[C@@H](CCC(=O)O)C(=O)N[C@@H](Cc1c[nH]cn1)C(=O)N[C@H](Cc1ccccc1)C(=O)N[C@@H](CCCNC(=N)N)C(=O)N[C@@H](Cc1c[nH]c2ccccc12)C(=O)NCC(=O)N[C@@H](CCCCN)C(=O)N1CCC[C@H]1C(=O)N[C@H](C(N)=O)C(C)C | Melanocortin receptor 4 | – | – | – | 0.00032 ± 2e-05 |
| CCCN(Cc1ccccc1OC)C(=O)c1cccc(Br)c1 | ATP2A2 | Ca2+-ATPase activity, activator | porcine cardiac SR vesicles | maximal Ca2+ activity | 1 |
| CSCC[C@H](NC(=O)[C@H](CO)NC(=O)[C@H](Cc1ccc(O)cc1)NC(=O)[C@H](CO)NC(C)=O)C(=O)N[C@@H](CCC(=O)O)C(=O)N[C@@H](Cc1c[nH]cn1)C(=O)N[C@@H](Cc1ccccc1)C(=O)N[C@@H](CCCNC(=N)N)C(=O)N[C@@H](Cc1c[nH]c2ccccc12)C(=O)NCC(=O)N[C@@H](C)C(=O)N1CCC[C@H]1C(=O)N[C@H](C(N)=O)C(C)C | Melanocortin receptor 4 | – | – | – | 0.04 ± 0.015 |

| SMILES | target | test | system | conditions | EC50 [µM] |
| --- | --- | --- | --- | --- | --- |
| O=C(Cn1c(=O)ccn([C@@H]2O[C@H](COP(=O)(O)OP(=O)(O)OP(=O)(O)O[C@H]3O[C@H](CO)[C@@H](O)[C@H](O)[C@H]3O)[C@@H](O)[C@H]2O)c1=O)c1ccccc1 | P2RY2 | PLC activation, agonist | 1321N1, transfected | – | > 10 |
| CCCN(Cc1ccccc1OC)C(=O)c1cc2ccccc2s1 | ATP2A2 | Ca2+-ATPase activity, activator | porcine cardiac SR vesicles | maximal Ca2+ activity | 5.8 ± 1.5 |
| CCCCCC=CC=C1C(=O)C=C[C@@H]1CC=CCCCC(=O)O | Transient receptor potential cation channel subfamily A member 1 (Trpa1, Mus musculus, UniProt Q8BLA8) | calcium signal, agonist, fluorescence | – | – | 5.6 |
| Cn1cc(-c2ccc(CN3CCSc4ccccc43)c(F)c2)cn1 | CHRM1 | calcium response, positive allosteric modulator | HM1 cells | with: acetylcholine | > 30 |
| CCCCN(Cc1ccccc1OC)C(=O)c1cc(C)c(C)s1 | ATP2A2 | Ca2+-ATPase activity, activator | porcine cardiac SR vesicles | maximal Ca2+ activity | 4 ± 0.8 |
| CCCCCCCCCC/C=C\CCCCC(=O)O | DNA topoisomerase IB | DNA relaxation, inhibitor | – | 30 min, 37 °C | 80.4 ± 9.3 |
| CSCC[C@H](NC(=O)[C@H](CO)NC(=O)[C@H](Cc1ccc(O)cc1)NC(=O)[C@H](CO)NC(C)=O)C(=O)N[C@@H](CCC(=O)O)C(=O)N[C@@H](Cc1c[nH]cn1)C(=O)N[C@@H](C)C(=O)N[C@@H](CCCNC(=N)N)C(=O)N[C@@H](Cc1c[nH]c2ccccc12)C(=O)NCC(=O)N[C@@H](CCCCN)C(=O)N1CCC[C@H]1C(=O)N[C@H](C(N)=O)C(C)C | Melanocortin receptor 4 | – | – | – | 4.62 ± 0.39 |
| Cn1cc(C2=C(c3cn(CCCSC(=N)N)c4ccccc34)C(=O)NC2=O)c2ccccc21 | Mothers against decapentaplegic homolog 4, with SMAD3 (Homo sapiens, UniProt Q13485, R361H) | SMAD3 binding to SMAD4 R361H, GST pull-down | – | – | 2.1 ± 0.7 |
| BP(=O)(OC[C@H]1O[C@@H](n2cnc3c(N)ncnc32)[C@H](O)[C@@H]1O)OP(=O)(O)OP(=O)(O)OC[C@H]1O[C@@H](n2cnc3c(N)ncnc32)[C@H](O)[C@@H]1O (stereo partly drawn) | P2RY2 | intracellular calcium rise, agonist | 1321N1 expressing human P2Y2 | 37 °C | > 100 |
| CSCC[C@H](NC(=O)[C@H](CO)NC(=O)[C@H](Cc1ccc(O)cc1)NC(=O)[C@H](CO)NC(C)=O)C(=O)N[C@@H](CCC(=O)O)C(=O)N[C@@H](Cc1c[nH]cn1)C(=O)N[C@@H](Cc1ccccc1)C(=O)N[C@@H](CCCNC(=N)N)C(=O)N[C@@H](Cc1c[nH]c2ccccc12)C(=O)NCC(=O)N[C@@H](CCCCN)C(=O)N[C@@H](C)C(=O)N[C@H](C(N)=O)C(C)C | Melanocortin receptor 4 | – | – | – | 0.044 ± 0.017 |
| CC(C)(O)CCCC1=CCC(C=O)CC1 (stereo not drawn) | Or10j5 (Mus musculus, UniProt Q62007) | ion current, agonist, patch clamp | – | – | 1.4 |
| O=C(NN=Cc1ccc2ccccc2n1)c1ccccc1 | Steroid hormone receptor ERR1 (ESRRA, Homo sapiens, UniProt P11474) | reporter gene, agonist, luciferase reporter | HEK293 transfected | – | 0.487 |
| CC(=O)N[C@@H](CO)C(=O)N[C@@H](Cc1ccc(O)cc1)C(=O)N[C@@H](CO)C(=O)N[C@@H](C)C(=O)N[C@@H](CCC(=O)O)C(=O)N[C@@H](Cc1c[nH]cn1)C(=O)N[C@@H](Cc1ccccc1)C(=O)N[C@@H](CCCNC(=N)N)C(=O)N[C@@H](Cc1c[nH]c2ccccc12)C(=O)NCC(=O)N[C@@H](CCCCN)C(=O)N1CCC[C@H]1C(=O)N[C@H](C(N)=O)C(C)C | Melanocortin receptor 4 | – | – | – | 0.12 ± 0.033 |
| CCCCCCCCCCCCCCCCC(=O)O | DNA topoisomerase IB | DNA relaxation, inhibitor | – | 30 min, 37 °C | > 1000 |
| CNC(=O)CC[C@@H](C)[C@H]1CC[C@H]2[C@@H]3CC[C@@H]4C[C@H](OC(=O)CCCCCC(=O)O)CC[C@]4(C)[C@H]3CC[C@]12C | human 20S proteasome | chymotrypsin-like activity, activator | – | without PA28 | > 15 |
| CC1=CC(=NOCC(=O)N2CCCCC2)Cc2cc(O)cc(O)c2C(=O)OCCC=CCC1 | Heat shock protein HSP 90-alpha (HSP90AA1, Homo sapiens, UniProt P07900) | binding, fluorescence polarisation competition | – | 20 nM HSP90, E/Z oxime mixture, with: fluorescein-labelled 17-AAG analogue | 0.046 |

Some of these lines once more:
| SMILES | target | test | system | conditions | EC50 [µM] |
| --- | --- | --- | --- | --- | --- |
| O=C(Cn1c(=O)ccn([C@@H]2O[C@H](COP(=O)(O)OP(=O)(O)OP(=O)(O)O[C@H]3O[C@H](CO)[C@@H](O)[C@H](O)[C@H]3O)[C@@H](O)[C@H]2O)c1=O)c1ccccc1 | P2RY2 | PLC activation, agonist | 1321N1, transfected | – | > 10 |
| CCCN(Cc1ccccc1OC)C(=O)c1cc2ccccc2s1 | ATP2A2 | Ca2+-ATPase activity, activator | porcine cardiac SR vesicles | maximal Ca2+ activity | 5.8 ± 1.5 |
| CCCCCC=CC=C1C(=O)C=C[C@@H]1CC=CCCCC(=O)O | Transient receptor potential cation channel subfamily A member 1 (Trpa1, Mus musculus, UniProt Q8BLA8) | calcium signal, agonist, fluorescence | – | – | 5.6 |
| Cn1cc(-c2ccc(CN3CCSc4ccccc43)c(F)c2)cn1 | CHRM1 | calcium response, positive allosteric modulator | HM1 cells | with: acetylcholine | > 30 |
